Experimental data pooled from the literature.
A part holds a random share of what one study measured.

Block 1 — method: protein-binding microarray; form: double-stranded DNA, one strand shown; medium: in vitro; concentration: 940 nM top; notes: 60-bp whole probe; added: salmon DNA 0.4 mg/ml; reference: random background probes; reading: higher = stronger binding; shared flanks, not repeated: GCCTAGCAC … GTCTTGATTCGCTTGACGCTGCTG
Target: Interferon regulatory factor 5, full length, phosphomimetic (IRF5, Homo sapiens, UniProt Q13568-2, residues 1-514, S451D/S453D/S456D/S462D)
Sequence | fitted relative affinity
TTAGGTTTCGGTCTCAGTTAGTGCTAG | 14.8 z-score
ATAGATTCCAGTTTCGATTAGTGCTAG | 8.15 z-score
CCCACTTTCAGTTCTCCCTTGTGCTAG | 3.63 z-score
CACGAACTGAGTTTCGAGACGTGCTAG | 3.19 z-score
GACGGGATCGACTATCGGGACGTGCTA | -0.176 z-score
TATGGTATTTTTTTGTAATCGTGCTAG | 1.07 z-score
GGTTTTCTGGTTCCCATTCCGTGCTAG | 1.92 z-score
TGAAGACTCTCTTGTCTGGATGTGCTA | 0.125 z-score
GACGGTCTCAGTATCGGGACGTGCTAG | 2.43 z-score
TTAGGACTGGACTTTCCGTTAGTGCTA | -0.39 z-score
TTAGAACTGGGGTTTCGATTTGTGCTA | 4.89 z-score
TACGGACTGGACTTTCGGGACGTGCTA | 0.284 z-score
GCCGGACTGGACTATCGGGACGTGCTA | -0.35 z-score
TTAGGACTGCTACCGCTTTAGTGCTAG | -0.303 z-score
AGTGGTATAGCACTAAGGGAGTGCTAG | -0.0792 z-score
TTAGATTTCAGACTGAATTAGTGCTAG | -0.00207 z-score
TTAGTACTGGGACTGGGTTAGTGCTAG | -0.286 z-score
TTGGGTTTCGGGTATCGGTTAGTGCTA | 9.35 z-score
GCCACCGGTCTCCATGGGTCGTGCTAG | -0.289 z-score

Block 2 — method: protein binding microarray; form: double-stranded DNA, one strand shown; medium: in vitro; concentration: not given; reference: not given; reading: higher = stronger binding
Target: Histone acetyltransferase KAT6A, winged helix 2, GST fusion (KAT6A, Homo sapiens, UniProt Q92794, residues 85-181)
Notes: 8-mer, flanks averaged, mean of 2 arrays, mostly near background
Construct (chain): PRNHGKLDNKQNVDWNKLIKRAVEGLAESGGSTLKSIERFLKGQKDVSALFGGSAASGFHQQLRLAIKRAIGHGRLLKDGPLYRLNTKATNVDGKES
Sequence | E-score
GGGTGCTA | -0.115
CCTCAGAG | 0.155
GAGTCTCA | -0.117
ATTTCAGA | -0.00036
AAGAACCA | 0.0171
AGCAGACA | -0.0484
AACGCAAA | 0.0528
CGTATATA | -0.178
GGATGTGA | -0.0625
CCTCGCAG | 0.0333
AGCTGACC | -0.0188
AAGGCTAT | -0.156
AGCAGAAA | 0.172
AGGGCGAT | -0.0192
GCGCGAGA | 0.0714
ACTCCCAT | -0.132
CCTATCAA | 0.0893
AAAACTGG | -0.00483
ATGGTATC | 0.0778
TCCTTGCA | 0.00242
AGCCCTAC | 0.000915
CAGCCGCC | 0.0636
ATAAAAAC | 0.124
ATCACACA | 0.106
CAGGCAAG | 0.0471

Block 3 — method: RNA Bind-n-Seq; form: RNA; medium: in vitro; concentration: 365 nM; reference: no-protein control; reading: higher = stronger binding
Target: RNA binding protein fox-1 homolog 2, RRM domain, GST-SBP tag (RBFOX2, Homo sapiens, UniProt O43251-10, residues 100-194)
Notes: natural RNA segment, single round, ends assumed
Shared flanks, not repeated: GGGAGUUCUACAGUCCGACGAUC … UGGAAUUCUCGGGUGCCAA
Target sequence (chain): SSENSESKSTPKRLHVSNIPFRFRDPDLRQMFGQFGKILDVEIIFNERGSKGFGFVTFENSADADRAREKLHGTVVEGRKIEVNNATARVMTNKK
Sequence | RBNS enrichment (R)
CCCUAGCCAGGCUGUGGCUGUCCCUGGGCAUGCUGCAGUCCUCCUGUCCCUUCUCCCCAGUCAGUAUUACCCUUCGCGCCCAUAUUAUUUAGGAGGGCUUUAGGGGCUCC | 0.445
UUAAAAUUAAAACUUCAGAUAUUUGUGGAUUACAAUCCUCAUUUACUUCCAAUGUGACUAAAAAGAGAAAAAAAAUCACUGUGUCACUUUAAAGAAAAAUCUUCUAAGGG | 0.357
UAUCCUUCACCACCCCCAGUCCCAGCACCUGUGUCAGUAAAGAAAGUGGACACAUUAGUAAUGGUUAUGGGAGUAAUACAGAGAAAGAGGUGAGUGGAGACUCAGCCCAG | 0.567
CUUUUUGCUCAGUUUUUAUAUGCCAGAUACAGAGAAUUUGUAGCGGUUAUUUUUGUAUGAUCUAGUAACUUGCAAACAGACCAAAUGGAUGAGAGGCGGGGACCGUGCAG | 1.38
GCCCGCCCUGGUUUGCCUGCGGUUUAAUAUGCAAUAUUCAGCAGACAGCUGCUGGCGCUACAAUUAGUGAGGCGAAAAUAACCACGAUCCACAUUACCAUCAAGCCCUUG | 0.246
GUUUCGGAUUUGCAGUGAUGUGUCUUCCGGUGGCAAUGGACAGGGAAGGAGCACCCAUGUCCACUGGAACGGGAGAACAAGCCUUCGGCAUCUACAGGGUUACUGUUUGC | 0.514
ACCCCAAUCUCCAGUGUCUGUAGCUCUUGCCUGCAAGUCUUGCUUGUGGGGUGACGAGGGGUGUAGAAUACCCCGAACCCUCUUCCAGGACAAAGCCAGGAGUGGAGCUG | 0.25
AGCGAGAUCGAGGCAGAGAAACGUAAUUUGUCCAUCACAUGGGGUUUGGAAAUAAAUAUAUUAUUUGACAAUAUUAUUGCAUUUUAAAUCUCCUUUCUCUUUUAUAGCUC | 0.355

Block 4 — method: RNA Bind-n-Seq; form: RNA; medium: in vitro; concentration: 200 nM; notes: whole 134-nt RNA, ends assumed; added: 150 mM LiCl; reference: input library; reading: higher = stronger binding; each molecule: 7-deaza-guanosine replaces G
Target: Ras GTPase-activating protein-binding protein 1, full length (G3BP1, Homo sapiens, UniProt Q13283)
Chain of UniProt Q13283 (whole entry, looked up): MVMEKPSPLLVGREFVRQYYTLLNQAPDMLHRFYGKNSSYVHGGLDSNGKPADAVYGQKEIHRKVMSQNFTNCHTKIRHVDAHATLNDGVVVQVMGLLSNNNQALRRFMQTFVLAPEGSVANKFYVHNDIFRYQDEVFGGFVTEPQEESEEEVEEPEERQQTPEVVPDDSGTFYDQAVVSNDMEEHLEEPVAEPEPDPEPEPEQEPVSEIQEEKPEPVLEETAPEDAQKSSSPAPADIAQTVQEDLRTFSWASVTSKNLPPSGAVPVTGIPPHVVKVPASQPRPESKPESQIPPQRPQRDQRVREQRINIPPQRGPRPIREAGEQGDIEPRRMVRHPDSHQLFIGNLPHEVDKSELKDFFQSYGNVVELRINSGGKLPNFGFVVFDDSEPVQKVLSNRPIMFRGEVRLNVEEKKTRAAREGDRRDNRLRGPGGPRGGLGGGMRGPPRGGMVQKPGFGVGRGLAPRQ
Shared flanks, not repeated: GGGAGUUCUACAGUCCGACGAUC … UGGAAUUCUCGGGUGUCAAGG
Sequence | log2 enrichment
AGUCCUGUGCUACACAUCGUAUGUACCGAAUCGGGUUUUUGGGUUUUUGGGAAAGGGAAAGUAUUAUGUUACGCCGUUCGGAUCUGCACU | -0.504
CUGUGCUACACAUCGUAUGUACCGAAUCGGGGUUUUUGGGGUUUUUUUGGGGUUUUUGGGGAAAGUAUUAUGUUACGCCGUUCGGAUCUG | 1.54
UCAAGUCCUGUGCUACACAUCGUAUGUACCGAAUCGGGUUUGGUUUGGUUUGGGAAAGUAUUAUGUUACGCCGUUCGGAUCUGCACUUCC | -0.556
UGGCCCUGGUGGCAUGCGGGGAGGAAGAGGUGGCCUCAUGGAUCGUGGUGGUCCCGGUGGAAUGUUAAGAGGUGGCCGUGGUGGAGACAG | 0.0784
UGGUUUGAGUCCAGCCAAUGACACUGGAGCCAAAAAGAAGAAAAAGAAACAAAAAAAGAAGAAAGAAAAAGGCAGUGAGACAGAUUCAGC | 1.02
CACAGACAACACGCACCCACACAGACACAGAGGGAAGGGGUUGGGAUGGGGACAGGGUGCACAGCAGGGCGGGGUAGGAUCCCAGCCCCU | 0.95
GUCCUGUGCUACACAUCGUAUGUACCGAAUCGGGGUUUUUGGGUUUUUGGGUUUUUGGAAAGUAUUAUGUUACGCCGUUCGGAUCUGCAC | -0.185
AGAAAGCCCAGGAGGAACCACCUGCCAAGCUGCUGGAUGACCUUUUCCGAAAGACCAAGGCAGCUCCCUGCAUCUAUUGGCUCCCACUGA | -0.341

Mixed results
Molecule | target | test | test system | conditions | scale | quantity | value
PhoQ, residues 284 288 289 292 302 303 TASMAF | PhoP, residues 12 14 15 18 19 IQFRS (Escherichia coli, UniProt P23836) | Sort-seq, refers to: YFP reporter | E. coli | PhoQ-PhoP variant library, added: 10 µM Mg2+ | reference: high Mg2+ state, higher = stronger signaling | fold induction | 20.3
